# Experimental data pooled from the literature.
# Each line is one published result; not all experiments were run side by side.
# B1: UGT1A9 (Homo sapiens, UniProt O60656); chain GKLLVVPMDGSHWFTMRSVVEKLILRGHEVVVVMPEVSWQLGRSLNCTVKTYSTSYTLEDLDREFKAFAHAQWKAQVRSIYSLLMGSYNDIFDLFFSNCRSLFKDKKLVEYLKESSFDAVFLDPFDNCGLIVAKYFSLPSVVFARGILCHYLEEGAQCPAPLSYVPRILLGFSDAMTFKERVRNHIMHLEEHLLCHRFFKNALEIASEILQTPVTEYDLYSHTSIWLLRTDFVLDYPKPVMPNMIFIGGINCHQGKPLPMEFEAYINASGEHGIVVFSLGSMVSEIPEKKAMAIADALGKIPQTVLWRYTGTRPSNLANNTILVKWLPQNDLLGHPMTRAFITHAGSHGVYESICNGVPMVMMPLFGDQMDNAKRMETKGAGVTLNVLEMTSEDLENALKAVINDKSYKENIMRLSSLHKDRPVEPLDLAVFWVEFVMRHKGAPHLRPAAHDLTWYQYHSLDVIGFLLAVVLTVAFITFKCCAYGYRKCLGKKGRVKKAHKSKTH
Molecule,target or system,assay,conditions,quantity,result
ksi D40R/D103N (Pseudomonas putida),,"UV-vis, measured: Tyr57",25 °C,pKa,8.2
B1 (UGT1A9),COc1ccc(-c2cc(=O)c3ccc(O)cc3o2)cc1,steady-state kinetics,"pH 7.4, 37 °C",Km,3.37 µM
"CRYGD (Homo sapiens, UniProt P07320)",,"NMR, measured: His65","25 °C, numbering of the source",pKa,6.02
nuc G50F/V51N/P117G/H124L/S128A/del44-49/L38E/E122Q (Staphylococcus aureus),,"NMR, measured: His121","298 K, KCl 100 mM, numbering of the source",pKa,5.7
ksi D103N (Pseudomonas putida),,"UV-vis, measured: Tyr57",25 °C,pKa,> 10
"ORF56 (Sulfolobus islandicus, UniProt Q54323)",,"NMR, measured: Tyr16","free native homodimer, low salt",pKa,9.14
"CISD1 soluble cytoplasmic domain (Homo sapiens, UniProt Q9NZ45)",,"redox potentiometric titration, measured: His87","oxidised cluster, His87",pKa,6.7
"PRL (Homo sapiens, UniProt P01236)",,"NMR, measured: His30","35 °C, 25 mM NaCl, apparent; independent-site fit, numbering of the source",pKa,5.28
ksi D40K/D103N (Pseudomonas putida),,"UV-vis, measured: Tyr57",25 °C,pKa,9.2
"PCSK1 propeptide domain (Homo sapiens, UniProt P29120)",,"mass spectrometry, measured: His85","apparent, histidine H/D exchange, pepsin digest",pKa,5.85
"proteorhodopsin, retinal (uncultured gamma-proteobacterium EBAC31A08, UniProt Q9F7P4)",,"UV-vis, measured: Asp97","NaCl 100 mM, large POPC nanodisc, monomeric",pKa,7.1
CRYGD P23T (Homo sapiens),,"NMR, measured: His83","25 °C, numbering of the source",pKa,5.9
PBP1 mature (Amyelois transitella),,"NMR, measured: His70","25 °C, free protein; not delipidated",pKa,> 7
ksi F56A/D103N (Pseudomonas putida),,"UV-vis, measured: Tyr57",25 °C,pKa,9.8
"WT1 zinc finger 4 (Homo sapiens, UniProt P19544)",,"NMR, measured: Cys5","288 K, KCl 10 mM, apo, unfolded, reduced, numbering of the source",pKa,8
ksi D40R/F56A/D103N (Pseudomonas putida),,"UV-vis, measured: Tyr57",25 °C,pKa,5.9
"iscU apo (Escherichia coli, UniProt P0ACD4)",,"NMR titration, measured: His105","25 °C, NaCl 150 mM, S-state, averaged, apo",pKa,< 5.4

# For quick reference, copied from above:
Molecule,target or system,assay,conditions,quantity,result
"proteorhodopsin, retinal (uncultured gamma-proteobacterium EBAC31A08, UniProt Q9F7P4)",,"UV-vis, measured: Asp97","NaCl 100 mM, large POPC nanodisc, monomeric",pKa,7.1
CRYGD P23T (Homo sapiens),,"NMR, measured: His83","25 °C, numbering of the source",pKa,5.9
